Measured values of several laboratories.
Numbered parts are unrelated; each lists some results of a single study. Positions count from the first letter of the parent shown.

Block 1 — target: CRIPT, C-terminal peptide; technique: DHFR complementation, deep sequencing; sample: yeast; reference: wild type; reading: higher = weaker binding
Setting: single substitutions, model-inferred values
Starting sequence: ERBIN, PDZ domain 1 (human); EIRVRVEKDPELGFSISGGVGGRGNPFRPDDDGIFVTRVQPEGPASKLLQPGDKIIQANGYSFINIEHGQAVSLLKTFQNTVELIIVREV; partner TKNYKQTSV
`P29E`: “binding free energy change” -0.201 kcal/mol.
`V4D` — result for “binding free energy change”: 0.781 kcal/mol.
`D30V` — result for “binding free energy change”: 0.357 kcal/mol.
Under “binding free energy change”, `R3M` is recorded as -0.107 kcal/mol.
Under “binding free energy change”, `D53K` is recorded as 0.934 kcal/mol.
Under “binding free energy change”, `V82F` is recorded as 1.58 kcal/mol.
Under “binding free energy change”, `N25R` is recorded as 0.902 kcal/mol.
`Y61H` — result for “binding free energy change”: -0.0145 kcal/mol.
`L48Q`: “binding free energy change” 0.142 kcal/mol.
`D32Q`: “binding free energy change” 0.246 kcal/mol.
`S46P` — result for “binding free energy change”: 0.789 kcal/mol.
For `I34T`, “binding free energy change” read 0.441 kcal/mol.
For `L75Q`, “binding free energy change” read 1.04 kcal/mol.
`I64Y` — result for “binding free energy change”: 0.00976 kcal/mol.
`E7Q`: “binding free energy change” -0.172 kcal/mol.
For `V72M`, “binding free energy change” read 1.6 kcal/mol.
`E1L` — result for “binding free energy change”: 0.256 kcal/mol.
Under “binding free energy change”, `P29I` is recorded as 0.232 kcal/mol.

Block 2 — technique: universal PBM; molecule type: double-stranded DNA, one strand shown; sample: in vitro; concentration: 600 nM; reading: higher = stronger binding
Target: Sal-like protein 4, full length isoform A (SALL4, Homo sapiens, UniProt Q9UJQ4, residues 1-1053)
Sequence of UniProt Q9UJQ4 (whole entry, looked up): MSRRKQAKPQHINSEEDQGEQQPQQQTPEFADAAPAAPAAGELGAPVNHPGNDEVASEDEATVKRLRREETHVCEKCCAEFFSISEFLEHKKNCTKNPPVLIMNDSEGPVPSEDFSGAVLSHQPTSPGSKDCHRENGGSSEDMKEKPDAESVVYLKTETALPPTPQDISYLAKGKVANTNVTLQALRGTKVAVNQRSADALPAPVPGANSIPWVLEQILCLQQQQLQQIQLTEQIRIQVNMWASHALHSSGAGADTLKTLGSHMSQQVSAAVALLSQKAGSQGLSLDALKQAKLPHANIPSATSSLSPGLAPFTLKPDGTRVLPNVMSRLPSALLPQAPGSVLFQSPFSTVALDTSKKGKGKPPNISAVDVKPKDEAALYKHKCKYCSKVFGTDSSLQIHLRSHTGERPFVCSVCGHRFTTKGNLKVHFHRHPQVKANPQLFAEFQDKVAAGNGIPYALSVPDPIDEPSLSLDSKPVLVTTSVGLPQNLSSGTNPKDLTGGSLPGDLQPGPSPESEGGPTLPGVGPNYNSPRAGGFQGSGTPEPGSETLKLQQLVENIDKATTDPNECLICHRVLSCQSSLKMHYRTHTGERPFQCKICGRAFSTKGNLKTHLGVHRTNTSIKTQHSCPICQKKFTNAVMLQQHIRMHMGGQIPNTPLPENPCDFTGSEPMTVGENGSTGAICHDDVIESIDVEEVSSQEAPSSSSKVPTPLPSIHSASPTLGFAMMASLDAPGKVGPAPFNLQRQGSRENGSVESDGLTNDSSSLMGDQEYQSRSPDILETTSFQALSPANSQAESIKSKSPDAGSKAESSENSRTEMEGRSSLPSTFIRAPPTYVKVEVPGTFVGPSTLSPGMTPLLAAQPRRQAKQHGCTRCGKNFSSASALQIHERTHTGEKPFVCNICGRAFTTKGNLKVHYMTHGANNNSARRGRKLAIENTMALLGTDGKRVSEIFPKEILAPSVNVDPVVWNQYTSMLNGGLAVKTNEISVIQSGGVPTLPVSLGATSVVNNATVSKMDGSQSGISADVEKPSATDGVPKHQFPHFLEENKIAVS
Setting: 8-mer, flanks averaged, mean of replicates
`GCCACTTA` has an E-score of 0.0324.
The E-score of `CTCTCACA` is reported as 0.0524.
The E-score of `CGCGGAAC` is reported as -0.18.
`GATCGCAC` gave an E-score of -0.0392.
`ACACTGCG` gave an E-score of -0.223.
For `CGCCTTTA`, the E-score was 0.0132.
`GCGGGTTA` has an E-score of -0.168.
For `CCTACAAA`, the E-score was 0.0231.
For `CATACCAA`, the E-score was 0.103.
`GGCGAGGA` has an E-score of -0.026.
`AGCGCTGG` has an E-score of -0.189.
`CCAACCCG` has an E-score of -0.341.
For `TCCATTCA`, the E-score was 0.12.
For `GGTCCCAC`, the E-score was -0.323.
`AAAACCGA` has an E-score of 0.0134.
With `ACAGTCCA` the E-score was -0.0551.
`AAAGCGTG` has an E-score of -0.0991.
For `AGCCGTTC`, the E-score was -0.336.

Block 3 — target: MAFK, bZIP domain (human); technique: DHFR protein complementation; sample: yeast; reference: wild-type JUN-FOS pair; reading: higher = stronger binding
Setting: single substitutions, most at no-binding floor
Starting sequence: JUN, bZIP domain (human); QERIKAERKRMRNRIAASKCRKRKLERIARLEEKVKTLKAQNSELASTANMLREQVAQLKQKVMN; partner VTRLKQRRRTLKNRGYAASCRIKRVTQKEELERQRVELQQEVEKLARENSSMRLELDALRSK
With `K34T` the binding fitness was -1.53 natural log.
`A46G` has a binding fitness of -1.46 natural log.
For `A40S`, the binding fitness was -1.34 natural log.
With `E33H` the binding fitness was -1.55 natural log.
`A46H` has a binding fitness of -1.48 natural log.
`R53D` gave a binding fitness of -1.54 natural log.
`R30T` has a binding fitness of -1.4 natural log.
For `L45R`, the binding fitness was -1.5 natural log.
`L52H` has a binding fitness of -1.42 natural log.
`A57S` gave a binding fitness of -1.39 natural log.
`E32P` gave a binding fitness of -1.57 natural log.
The binding fitness of `A46E` is reported as -1.46 natural log.
The binding fitness of `V35L` is reported as -1.46 natural log.
The binding fitness of `E33M` is reported as -1.55 natural log.
The binding fitness of `S43D` is reported as -1.5 natural log.
For `A46N`, the binding fitness was -1.31 natural log.
With `A46M` the binding fitness was -1.42 natural log.

Block 4 — technique: RNA Bind-n-Seq; molecule type: RNA; sample: in vitro; concentration: 200 nM; setting: whole 134-nt RNA, ends assumed; with: 150 mM LiCl; reference: input library; reading: higher = stronger binding; library: 7-deaza-guanosine replaces G
Target: Ras GTPase-activating protein-binding protein 1, full length (G3BP1, Homo sapiens, UniProt Q13283)
Sequence of UniProt Q13283 (whole entry, looked up): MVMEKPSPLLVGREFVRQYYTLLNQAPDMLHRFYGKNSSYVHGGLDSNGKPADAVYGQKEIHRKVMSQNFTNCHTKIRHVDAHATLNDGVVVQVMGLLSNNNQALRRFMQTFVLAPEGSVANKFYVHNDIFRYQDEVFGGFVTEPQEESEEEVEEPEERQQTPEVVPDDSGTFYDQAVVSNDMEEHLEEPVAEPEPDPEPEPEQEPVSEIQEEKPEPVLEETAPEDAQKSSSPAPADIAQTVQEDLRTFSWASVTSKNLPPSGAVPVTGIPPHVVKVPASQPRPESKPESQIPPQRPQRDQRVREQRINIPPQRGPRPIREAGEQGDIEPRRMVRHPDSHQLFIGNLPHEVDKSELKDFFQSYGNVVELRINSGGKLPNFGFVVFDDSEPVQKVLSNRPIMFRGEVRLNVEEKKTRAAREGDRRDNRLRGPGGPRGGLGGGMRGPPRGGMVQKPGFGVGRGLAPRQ
`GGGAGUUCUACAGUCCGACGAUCUCAAGUCCUGUGCUACACAUCGUAUGUACCGAAUCGGAAAGGAAAGGGAAAGGGGAAAGUAUUAUGUUACGCCGUUCGGAUCUGCACUUCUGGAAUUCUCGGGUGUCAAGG` has a log2 enrichment of -0.545.
`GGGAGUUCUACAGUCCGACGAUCUGGUGGACAGAAGGCACUGCAGCCUGAAAUGGCAGAGUCUGGUGCUGACGAUCCGCGAGAAGAUCAAUGCUGCCAUCCAGGACAUGCCAGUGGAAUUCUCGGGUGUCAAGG` gave a log2 enrichment of -1.43.
`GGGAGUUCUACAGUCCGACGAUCCUGUGCUACACAUCGUAUGUACCGAAUCGGGCCCCCCCGGCCCCCCCGGGCCCCCCCGGGGAAAGUAUUAUGUUACGCCGUUCGGAUCUGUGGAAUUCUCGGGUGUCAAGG` has a log2 enrichment of -0.0206.
`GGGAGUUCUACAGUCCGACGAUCCUGUGCUACACAUCGUAUGUACCGAAUCGGGAAAAAAAGGGAAAAAAAGGGAAAAAAAGGGGAAAGUAUUAUGUUACGCCGUUCGGAUCUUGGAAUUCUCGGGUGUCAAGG` has a log2 enrichment of 0.26.
`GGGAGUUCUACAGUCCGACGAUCACCAUGCAGGUGGGCAUCUUUGGGAAGUGGGGCAAGGGGGGGAUAGGGAGGGGGGUAACACUUUGAGAACAGGUGGUCCCAGGUCGUUUCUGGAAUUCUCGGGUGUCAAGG` has a log2 enrichment of -0.129.
`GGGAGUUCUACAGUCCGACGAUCUCAAGUCCUGUGCUACACAUCGUAUGUACCGAAUCGGUUUGGUUUUUGGUUUGGAAAGUAUUAUGUUACGCCGUUCGGAUCUGCACUUCCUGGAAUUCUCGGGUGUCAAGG` has a log2 enrichment of -0.557.
With `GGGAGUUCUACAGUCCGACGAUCUGGGAGGUGGAUUUUGUUUAUUUUUUUAGCUCAUUUCCAGGGGUGGGAAUUUUUUUUUAAUAUGUGGCAUGAAUAAAGUUGUUUUUGAAAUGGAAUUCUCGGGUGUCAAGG` the log2 enrichment was 0.168.
With `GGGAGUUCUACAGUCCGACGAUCUGGGAGGUGGAUUUUGUUUAUUUUUUUAGCUCAUUUCCAGGGGUGGGAAUUUUUUUUUAAUAUGUGUCAUGAAUAAAAUUGUUUUUGAAAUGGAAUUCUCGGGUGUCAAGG` the log2 enrichment was -0.416.
For `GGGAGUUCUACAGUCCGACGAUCUCCUGUGCUACACAUCGUAUGUACCGAAUCAAAUUUUUUUAAAUUUAAAUUUUUUUAAAAAAGUAUUAUGUUACGCCGUUCGGAUCUGCAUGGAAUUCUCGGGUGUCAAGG`, the log2 enrichment was -2.27.
For `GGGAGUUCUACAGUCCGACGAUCUCAAGUCCUGUGCUACACAUCGUAUGUACCGAAUCGGAGGUUUGGUUUUUUUGGAAAGUAUUAUGUUACGCCGUUCGGAUCUGCACUUCCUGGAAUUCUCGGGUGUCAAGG`, the log2 enrichment was -0.0529.
With `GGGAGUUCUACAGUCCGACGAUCCCUGUGCUACACAUCGUAUGUACCGAAUCGGGGCCCCCCCGGCCCCCCCGGCCCCCCCGGAAAGUAUUAUGUUACGCCGUUCGGAUCUGCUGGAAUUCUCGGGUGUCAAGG` the log2 enrichment was 0.604.

Block 5 — technique: DHFR PCA, deep sequencing; sample: yeast; with: (+)-ABA 200 µM; reference: wild-type fitted maximum; reading: higher = stronger binding
Target: ABI1, truncated, D143A, DHFR fusion (Arabidopsis thaliana)
Setting: methotrexate growth selection, single substitutions
Starting sequence: PYL1, truncated, DHFR fusion (Arabidopsis thaliana); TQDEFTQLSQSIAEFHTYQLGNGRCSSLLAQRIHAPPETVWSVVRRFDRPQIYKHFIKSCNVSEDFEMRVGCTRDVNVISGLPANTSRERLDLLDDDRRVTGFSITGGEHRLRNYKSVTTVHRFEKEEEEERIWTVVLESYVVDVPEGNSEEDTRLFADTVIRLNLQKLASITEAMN
For `T6L`, “relative binding score” read 93.7%.
`E128M` — result for “relative binding score”: 106%.
`V78T`: “relative binding score” 91.7%.
For `V40E`, “relative binding score” read -20.5%.
`A170F` — result for “relative binding score”: 3.25%.
`R163G`: “relative binding score” 82.9%.
For `R49C`, “relative binding score” read 96.5%.
For `V70Y`, “relative binding score” read 63.4%.
Under “relative binding score”, `P146R` is recorded as 15.9%.
For `R45Y`, “relative binding score” read 3.63%.
`D48Y` — result for “relative binding score”: 32.2%.
Under “relative binding score”, `C25H` is recorded as 50.1%.

Block 6 — technique: protein binding microarray; molecule type: double-stranded DNA, one strand shown; sample: in vitro; concentration: not given; reference: not given; reading: higher = stronger binding
Target: Histone acetyltransferase KAT6A, winged helix 1, GST fusion (KAT6A, Homo sapiens, UniProt Q92794, residues 1-85)
Setting: 8-mer, flanks averaged, mean of 2 arrays, mostly near background
Target sequence (chain): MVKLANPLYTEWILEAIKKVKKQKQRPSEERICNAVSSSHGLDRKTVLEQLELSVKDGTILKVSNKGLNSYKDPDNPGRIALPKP
`GACGAACA` has an E-score of 0.103.
The E-score of `CTACCTAA` is reported as 0.0291.
For `AATGTGTC`, the E-score was -0.0927.
For `GTTATCGA`, the E-score was -0.0249.
The E-score of `CCAACATC` is reported as -0.011.
The E-score of `TGGCACCA` is reported as -0.183.
`CTCTGTAA` gave an E-score of -0.0452.
`GTAACGCA` gave an E-score of 0.149.
`AATGTCGA` has an E-score of -0.233.
For `ACCAAATA`, the E-score was -0.301.
`GATCGAAA` has an E-score of 0.0228.
With `ATACAAAA` the E-score was -0.164.
`AGTGATGG` has an E-score of -0.228.
`GGAGGAAA` gave an E-score of -0.0279.
The E-score of `GAGCTCCC` is reported as -0.0205.
`AATGAACG` gave an E-score of -0.0833.
With `CAGATTGA` the E-score was 0.0451.
`ATCTTGCG` gave an E-score of 0.0679.
The E-score of `AGCCGAGC` is reported as 0.186.
`CTCGACTA` has an E-score of -0.14.
`ATACATAG` has an E-score of -0.116.
The E-score of `AAGGGCCG` is reported as 0.168.
`CTGAGGTC` has an E-score of -0.171.
`CTAGTTAC` has an E-score of 0.0773.
`CCGGGCCA` gave an E-score of 0.232.

Block 7 — target: CCND2, cyclin fold, Cln2 fusion (human); technique: yeast growth competition, sequencing; sample: yeast; setting: weak parent motif; reference: not given; reading: higher = stronger binding
Starting sequence: PPP1R3F docking peptide (human); VAPRRVLFADEAL; partner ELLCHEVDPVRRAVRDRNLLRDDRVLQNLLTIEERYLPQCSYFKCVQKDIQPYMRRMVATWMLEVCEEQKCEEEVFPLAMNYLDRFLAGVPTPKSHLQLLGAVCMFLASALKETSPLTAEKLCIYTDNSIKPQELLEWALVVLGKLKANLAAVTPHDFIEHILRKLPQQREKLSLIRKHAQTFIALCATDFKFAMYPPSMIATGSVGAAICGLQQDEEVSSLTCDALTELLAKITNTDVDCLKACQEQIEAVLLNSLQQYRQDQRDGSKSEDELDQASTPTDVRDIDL
`R5A L7A` — result for “normalised enrichment score”: -0.0165.
`F8A`: “normalised enrichment score” -0.0935.
`D10A` — result for “normalised enrichment score”: 0.143.
`R5A` — result for “normalised enrichment score”: 0.39.
For `F8L`, “normalised enrichment score” read 0.341.
`V1A` — result for “normalised enrichment score”: -0.016.
For `R4A`, “normalised enrichment score” read 0.0514.
For `R5K F8L`, “normalised enrichment score” read 0.22.

For quick reference, copied from above (block 5):
`R163G`: “relative binding score” 82.9%.
For `V70Y`, “relative binding score” read 63.4%.
Under “relative binding score”, `P146R` is recorded as 15.9%.
For `R49C`, “relative binding score” read 96.5%.
Under “relative binding score”, `C25H` is recorded as 50.1%.
For `V40E`, “relative binding score” read -20.5%.
`A170F` — result for “relative binding score”: 3.25%.
For `T6L`, “relative binding score” read 93.7%.
